Results from different studies.
Compare with care: the assays were run in different laboratories. Several values in a cell are separate wells, animals, samples, runs or records. Numbers after ± are the reported error.
KLRK1 with MICA: NKG2-D type II integral membrane protein, with MICA (KLRK1, Homo sapiens, UniProt P26718)
UniProt P26718, sequence (whole entry, looked up): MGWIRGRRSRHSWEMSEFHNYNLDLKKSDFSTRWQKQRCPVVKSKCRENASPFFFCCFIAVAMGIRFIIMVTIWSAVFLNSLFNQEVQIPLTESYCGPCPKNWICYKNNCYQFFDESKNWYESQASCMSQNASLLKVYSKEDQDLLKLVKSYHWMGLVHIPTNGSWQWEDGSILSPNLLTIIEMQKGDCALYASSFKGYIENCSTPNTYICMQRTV
blaNDM-1: Metallo-beta-lactamase type 2 (blaNDM-1, Klebsiella pneumoniae, UniProt C7C422)
UniProt Q03431, sequence (whole entry, looked up): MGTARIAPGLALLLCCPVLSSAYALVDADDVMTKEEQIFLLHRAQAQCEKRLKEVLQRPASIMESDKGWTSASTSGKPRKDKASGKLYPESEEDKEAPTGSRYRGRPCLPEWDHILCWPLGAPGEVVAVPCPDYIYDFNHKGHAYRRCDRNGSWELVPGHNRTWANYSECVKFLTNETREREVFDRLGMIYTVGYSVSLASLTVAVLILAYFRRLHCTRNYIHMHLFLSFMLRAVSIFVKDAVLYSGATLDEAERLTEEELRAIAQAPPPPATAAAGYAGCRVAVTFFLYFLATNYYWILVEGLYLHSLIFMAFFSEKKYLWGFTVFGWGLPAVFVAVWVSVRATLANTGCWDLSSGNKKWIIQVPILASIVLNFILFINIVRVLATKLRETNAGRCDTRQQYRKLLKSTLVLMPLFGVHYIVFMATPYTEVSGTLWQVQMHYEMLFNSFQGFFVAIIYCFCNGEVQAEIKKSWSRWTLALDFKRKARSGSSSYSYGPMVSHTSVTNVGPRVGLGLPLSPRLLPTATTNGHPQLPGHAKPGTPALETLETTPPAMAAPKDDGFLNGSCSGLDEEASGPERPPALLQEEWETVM
UniProt P41595, sequence (whole entry, looked up): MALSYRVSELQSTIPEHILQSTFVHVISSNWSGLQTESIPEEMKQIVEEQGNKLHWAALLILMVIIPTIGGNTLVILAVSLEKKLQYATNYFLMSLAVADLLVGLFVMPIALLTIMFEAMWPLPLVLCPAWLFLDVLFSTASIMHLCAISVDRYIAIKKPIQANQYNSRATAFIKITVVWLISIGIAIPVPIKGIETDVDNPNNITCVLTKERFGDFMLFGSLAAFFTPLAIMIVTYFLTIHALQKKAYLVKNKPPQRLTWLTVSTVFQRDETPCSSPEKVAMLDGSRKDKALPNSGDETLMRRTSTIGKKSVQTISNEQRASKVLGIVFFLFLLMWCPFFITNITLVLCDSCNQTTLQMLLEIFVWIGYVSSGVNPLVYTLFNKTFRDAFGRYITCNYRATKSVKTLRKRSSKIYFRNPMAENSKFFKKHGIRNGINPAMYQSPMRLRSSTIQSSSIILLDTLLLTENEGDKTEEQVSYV
UniProt Q9HCG7, sequence (whole entry, looked up): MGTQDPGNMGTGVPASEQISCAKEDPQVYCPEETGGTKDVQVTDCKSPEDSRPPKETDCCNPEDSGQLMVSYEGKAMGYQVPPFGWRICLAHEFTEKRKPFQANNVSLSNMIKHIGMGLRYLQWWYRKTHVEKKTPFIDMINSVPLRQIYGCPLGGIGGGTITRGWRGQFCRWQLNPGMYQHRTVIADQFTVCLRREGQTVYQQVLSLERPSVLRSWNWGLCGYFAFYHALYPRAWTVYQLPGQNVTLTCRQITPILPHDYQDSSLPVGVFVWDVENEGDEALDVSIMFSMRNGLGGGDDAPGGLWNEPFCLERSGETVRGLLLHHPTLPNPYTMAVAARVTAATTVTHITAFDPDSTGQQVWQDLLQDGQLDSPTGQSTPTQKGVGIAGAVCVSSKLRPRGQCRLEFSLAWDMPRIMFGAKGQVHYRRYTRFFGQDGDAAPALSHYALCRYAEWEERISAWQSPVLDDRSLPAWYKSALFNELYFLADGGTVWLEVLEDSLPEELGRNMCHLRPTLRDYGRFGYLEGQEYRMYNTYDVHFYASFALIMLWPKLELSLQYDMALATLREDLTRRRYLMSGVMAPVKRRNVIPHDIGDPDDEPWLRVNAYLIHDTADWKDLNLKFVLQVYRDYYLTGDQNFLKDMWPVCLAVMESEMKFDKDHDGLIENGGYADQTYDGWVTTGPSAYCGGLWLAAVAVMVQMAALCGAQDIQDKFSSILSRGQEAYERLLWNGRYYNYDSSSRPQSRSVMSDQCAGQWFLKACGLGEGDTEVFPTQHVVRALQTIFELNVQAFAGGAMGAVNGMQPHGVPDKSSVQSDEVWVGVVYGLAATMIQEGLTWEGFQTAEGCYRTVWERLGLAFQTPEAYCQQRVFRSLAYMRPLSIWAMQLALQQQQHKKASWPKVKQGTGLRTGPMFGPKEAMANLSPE
UniProt Q58513, sequence (whole entry, looked up): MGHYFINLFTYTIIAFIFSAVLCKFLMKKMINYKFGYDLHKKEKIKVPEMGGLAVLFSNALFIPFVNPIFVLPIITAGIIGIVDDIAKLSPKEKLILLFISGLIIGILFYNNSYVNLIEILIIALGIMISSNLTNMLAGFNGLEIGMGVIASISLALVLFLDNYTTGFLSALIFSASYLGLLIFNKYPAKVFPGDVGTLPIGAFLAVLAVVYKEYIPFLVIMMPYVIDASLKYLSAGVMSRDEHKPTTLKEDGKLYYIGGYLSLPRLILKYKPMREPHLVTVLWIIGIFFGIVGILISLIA
UniProt O15294, sequence (whole entry, looked up): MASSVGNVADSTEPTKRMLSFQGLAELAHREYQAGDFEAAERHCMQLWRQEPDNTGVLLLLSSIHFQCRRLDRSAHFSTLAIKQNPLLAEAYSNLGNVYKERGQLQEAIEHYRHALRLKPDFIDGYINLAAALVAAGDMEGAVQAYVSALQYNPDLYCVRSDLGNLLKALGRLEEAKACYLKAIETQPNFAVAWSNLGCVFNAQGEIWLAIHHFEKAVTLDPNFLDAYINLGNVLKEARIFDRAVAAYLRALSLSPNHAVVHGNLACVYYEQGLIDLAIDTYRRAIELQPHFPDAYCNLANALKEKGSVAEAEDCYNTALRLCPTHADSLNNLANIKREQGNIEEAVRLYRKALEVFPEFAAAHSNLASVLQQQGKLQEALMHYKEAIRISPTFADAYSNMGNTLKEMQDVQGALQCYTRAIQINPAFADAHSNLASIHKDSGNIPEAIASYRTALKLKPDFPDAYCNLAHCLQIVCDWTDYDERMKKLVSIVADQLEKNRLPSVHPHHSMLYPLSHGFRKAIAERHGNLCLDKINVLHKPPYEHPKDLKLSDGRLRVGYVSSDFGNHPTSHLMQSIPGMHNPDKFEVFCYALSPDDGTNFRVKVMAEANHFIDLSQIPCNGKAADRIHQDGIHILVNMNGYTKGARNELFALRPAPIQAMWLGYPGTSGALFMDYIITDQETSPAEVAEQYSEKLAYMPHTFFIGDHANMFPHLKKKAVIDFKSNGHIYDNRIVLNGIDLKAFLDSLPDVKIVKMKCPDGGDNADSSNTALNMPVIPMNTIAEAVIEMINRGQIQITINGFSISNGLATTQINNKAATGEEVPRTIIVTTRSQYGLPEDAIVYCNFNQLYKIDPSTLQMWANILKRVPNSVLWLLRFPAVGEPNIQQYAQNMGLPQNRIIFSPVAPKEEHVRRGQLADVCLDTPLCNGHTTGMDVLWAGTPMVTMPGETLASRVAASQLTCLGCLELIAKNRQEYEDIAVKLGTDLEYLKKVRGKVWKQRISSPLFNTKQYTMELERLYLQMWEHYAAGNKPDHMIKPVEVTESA
UniProt Q7Z5W3, sequence (whole entry, looked up): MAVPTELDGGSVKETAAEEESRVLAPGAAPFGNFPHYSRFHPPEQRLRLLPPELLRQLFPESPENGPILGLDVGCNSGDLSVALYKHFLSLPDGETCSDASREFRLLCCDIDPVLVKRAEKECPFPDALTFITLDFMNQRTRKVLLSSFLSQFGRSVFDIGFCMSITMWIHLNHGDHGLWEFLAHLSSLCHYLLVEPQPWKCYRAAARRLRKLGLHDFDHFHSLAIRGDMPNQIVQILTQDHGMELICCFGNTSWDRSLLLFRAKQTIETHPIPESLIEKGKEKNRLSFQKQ
UniProt P01902, sequence (whole entry, unmodified, looked up): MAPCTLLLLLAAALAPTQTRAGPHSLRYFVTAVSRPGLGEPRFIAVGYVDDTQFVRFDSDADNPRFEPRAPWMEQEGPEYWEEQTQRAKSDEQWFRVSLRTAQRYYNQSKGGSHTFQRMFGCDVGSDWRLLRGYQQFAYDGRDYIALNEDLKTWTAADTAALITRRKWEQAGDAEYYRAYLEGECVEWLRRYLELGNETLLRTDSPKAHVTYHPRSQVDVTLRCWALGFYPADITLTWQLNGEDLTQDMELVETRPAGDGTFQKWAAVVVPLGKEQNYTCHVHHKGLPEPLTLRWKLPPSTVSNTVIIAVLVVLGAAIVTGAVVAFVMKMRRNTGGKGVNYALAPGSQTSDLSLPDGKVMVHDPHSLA
UniProt Q9FIP9, sequence (whole entry, looked up): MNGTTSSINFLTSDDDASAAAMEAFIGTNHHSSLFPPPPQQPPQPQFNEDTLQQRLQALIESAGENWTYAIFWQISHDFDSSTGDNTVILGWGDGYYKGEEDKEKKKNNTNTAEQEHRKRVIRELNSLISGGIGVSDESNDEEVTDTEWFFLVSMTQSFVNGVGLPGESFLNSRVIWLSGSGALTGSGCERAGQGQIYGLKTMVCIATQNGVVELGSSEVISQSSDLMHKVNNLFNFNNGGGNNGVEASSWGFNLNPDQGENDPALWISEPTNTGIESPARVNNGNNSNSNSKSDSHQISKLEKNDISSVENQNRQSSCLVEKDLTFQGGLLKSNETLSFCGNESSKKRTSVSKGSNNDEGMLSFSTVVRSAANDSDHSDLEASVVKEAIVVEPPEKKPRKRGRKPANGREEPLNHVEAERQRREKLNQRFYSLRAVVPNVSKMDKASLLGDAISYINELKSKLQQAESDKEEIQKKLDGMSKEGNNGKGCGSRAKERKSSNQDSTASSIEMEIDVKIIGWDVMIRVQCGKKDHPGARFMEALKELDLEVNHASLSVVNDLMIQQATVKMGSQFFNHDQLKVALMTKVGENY

`OC[C@@H]1[C@@H](O)[C@H](O)[C@@H](O)[C@H]2N[C@@H]12` gave an IC50 of greater than 100 µM (Beta-glucosidase (GBA2, Homo sapiens, UniProt Q9HCG7); enzyme activity, inhibitor; pH 5.8, with preincubation).
`CN(C)C(=O)[C@@H](NC(=O)c1cnccc1-c1ccc(C(F)(F)F)cc1)c1cccc(C(F)(F)F)c1` has an IC50 of 0.4 ± 0.1 µM (KLRK1 with MICA; ligand binding, inhibitor, TR-FRET; HEK293 expressing NKG2D and DAP10; together with: MICA-Alexa647).
For `COc1ccccc1[C@@H](NS(=O)(=O)c1cc2ccc(O)nc2cc1Cl)C(=O)N(CC(=O)NCCn1cc(COCCOCC(=O)N[C@H](C(=O)N2C[C@H](O)C[C@H]2C(=O)NCc2ccc(-c3scnc3C)cc2)C(C)(C)C)nn1)Cc1cccs1`, the IC50 was 1.14 µM (UDP-N-acetylglucosamine--peptide N-acetylglucosaminyltransferase 110 kDa subunit (OGT, Homo sapiens, UniProt O15294); enzyme activity, inhibitor, fluorescence).
The IC50 of `CC(=O)N[C@@H](CCCNC(=N)N)C(=O)N[C@@H](Cc1ccc(O)cc1)C(=O)N[C@H]1CCCNC(=N)NC(=O)NCCCCNC(=O)[C@H](Cc2ccc(O)cc2)NC(=O)[C@H](CCCNC(=N)N)NC(=O)[C@H](CC(C)C)NC1=O` is reported as 3.94 ± 0.66 µM (Neuropeptide Y receptor type 4 (NPY4R, Homo sapiens, UniProt P50391); β-arrestin 2 recruitment, antagonist; HEK293T; together with: 3 nM human pancreatic polypeptide).
With `CN1C(=O)[C@H](Cc2ccccc2)N(C)C(=O)[C@@H]2[C@H]1CCN2Cc1cc(Cl)cc(Cl)c1` the IC50 was 10.2 µM (KLRK1 with MICA; ligand binding, inhibitor, TR-FRET; HEK293 expressing NKG2D and DAP10; together with: MICA-Alexa647).
The IC50 of `Cc1ccc(S(=O)(=O)N(CCC(=O)N(C)C)CC(=O)[C@H](C)NC(=O)OCc2ccccc2)cc1` is reported as ~75 µM and 75 µM (Genome polyprotein, 3C protease (Human hepatitis A virus genotype IB, UniProt P08617, C1543S)).
The IC50 of `CC[C@H](C)[C@H](NC(=O)[C@H](CCC(=O)O)NC(=O)[C@H](CO)NC(=O)[C@@H](NC(=O)[C@@H](N)CO)C(C)C)C(=O)N[C@@H](CCC(N)=O)C(=O)N[C@@H](CC(C)C)C(=O)N[C@@H](CCSC)C(=O)N[C@@H](C)C(=O)N[C@@H](CC(N)=O)C(=O)N[C@@H](CC(C)C)C(=O)NCC(=O)N[C@@H](CCCCN)C(=O)N[C@@H](Cc1c[nH]cn1)C(=O)N[C@@H](CC(C)C)C(=O)N[C@@H](CC(N)=O)C(=O)N[C@@H](CO)C(=O)N[C@@H](CCSC)C(=O)N[C@@H](CCC(=O)O)C(=O)N[C@@H](CCCNC(=N)N)C(=O)N[C@H](C(=O)N[C@@H](CCC(=O)O)C(=O)N[C@@H](Cc1c[nH]c2ccccc12)C(=O)N[C@@H](CC(C)C)C(=O)N[C@@H](CCCNC(=N)N)C(=O)N[C@@H](CCCCN)C(=O)N[C@@H](CCCCN)C(=O)N[C@@H](CC(C)C)C(=O)N[C@@H](CCC(N)=O)C(=O)N[C@@H](CC(=O)O)C(=O)N[C@H](C(=O)N[C@@H](Cc1c[nH]cn1)C(=O)N[C@@H](CC(N)=O)C(=O)N[C@@H](Cc1ccccc1)C(N)=O)C(C)C)C(C)C` is reported as 0.0137 µM (Parathyroid hormone/parathyroid hormone-related peptide receptor (PTH1R, Homo sapiens, UniProt Q03431); ligand displacement, radioligand; cell membranes).
`N#Cc1cn([C@@H]2O[C@H](CSCC[C@H](N)C(=O)O)[C@@H](O)[C@H]2O)c2ncnc(N)c12` gave an IC50 of 0.03 µM (RNA 5'-monophosphate methyltransferase (BCDIN3D, Homo sapiens, UniProt Q7Z5W3); enzyme activity, inhibitor, radiometric).
`CC[C@@H]1C(=O)N(C)c2cnc(Oc3ccc(C(=O)NCCCC[C@H](NC(C)=O)C(=O)NCCOCCOCC(=O)NCCOCCOCC(=O)NCCOCCOCC(=O)NCCOCCOCC(=O)N4CCC[C@H]4C(=O)N[C@@H](CC(C)C)C(=O)N[C@@H](Cc4cncn4CCCCCCCCc4ccccc4)C(=O)N[C@@H](CO)C(=O)N[C@H](C(N)=O)[C@@H](C)OP(=O)(O)O)cc3OC)nc2N1CC(C)C` has an IC50 of 0.1 ± 0.0043 µM (Serine/threonine-protein kinase PLK1 (PLK1, Homo sapiens, UniProt P53350); enzyme activity, inhibitor).
For `O=C(COc1ccc2c(c1O)C(=O)c1ccccc1C2=O)c1ccccc1`, the IC50 was 60 ± 5 µM (Gag-Pol polyprotein, reverse transcriptase (gag-pol, Human immunodeficiency virus 1, UniProt P03366); RNA-dependent DNA polymerase activity; wild-type reverse transcriptase).
The IC50 of `COC(=O)C1CN1S(=O)(=O)c1ccc(C)cc1F` (stereo not drawn) is reported as greater than 200 µM (Protein disulfide-isomerase A3 (PDIA3, Homo sapiens, UniProt P30101); enzyme activity, inhibitor, absorbance; pH 7.6).
For `CCCCn1nnc(-c2cccc(NC(=O)[C@H](C)CS)c2)n1`, the IC50 was 2.65 µM (blaNDM-1; enzyme activity, inhibitor, fluorescence; with preincubation).
`CC(=O)CCC1C(=O)NC(C(C)C)C(=O)NC(Cc2cccc(O)c2)C(=O)N2CCCC(N2)C(=O)OC(C(C)=CC=CC(=O)N2CCCCO2)CC=CC=CC(O)C(C)C1O` (stereo not drawn) has an IC50 of greater than 50 µM (ATP-dependent translocase ABCB1 (ABCB1, Homo sapiens, UniProt P08183); P-glycoprotein transport, inhibitor; MDR1-MDCK; 60 min, pH 7.4, together with: loperamide 5 µM).
For `O=C(CCS)Nc1ccccc1-c1nn[nH]n1`, the IC50 was 10.2 µM (Metallo-beta-lactamase type 2 (Serratia marcescens, UniProt P52699); inhibitor; 10 min preincubation, together with: FC5 substrate).
`CC(C)C[C@H](NC(=O)[C@H](CCCNC(=N)N)NC(=O)[C@H](CCC(=O)O)NC(=O)[C@H](CCCCN)NC(=O)[C@H](CCCNC(=N)N)NC(=O)[C@H](CCCCN)NC(=O)[C@]1(C)CCCC=CCCC[C@](C)(NC(=O)[C@H](CC(C)C)NC(=O)[C@H](CO)NC(=O)[C@H](C)NC(=O)[C@H](CCCCN)NC(=O)[C@H](CCCNC(=N)N)NC(=O)[C@H](C)NC(=O)[C@H](CCC(N)=O)NC(=O)[C@@H]2CCCN2C(=O)[C@@H](NC(=O)[C@H](CO)NC(=O)c2ccc3c(c2)C(=O)OC32c3ccc(N(C)C)cc3Oc3cc(N(C)C)ccc32)C(C)C)C(=O)N[C@@H](CCCNC(=N)N)C(=O)N[C@@H](Cc2ccccc2)C(=O)N[C@@H](CC(C)C)C(=O)N1)C(=O)O` has an IC50 of 4.5 ± 1.4 µM (Transcription factor MYC3 (MYC3, Arabidopsis thaliana, UniProt Q9FIP9); JAZ9 peptide binding, inhibitor, AlphaScreen; pH 8.0, 25 °C, together with: 50 nM biotin-JAZ9 peptide).
`CNC(=O)NCCC[C@@H]1NC(=O)[C@@H](C)NC(=O)C[C@@H](C(=O)O)NC(=O)C[C@@H](C(=O)O)NC(=O)[C@H](Cc2ccccc2)N(C)C1=O` has an IC50 of greater than 1000 µM (Endochitinase B1 (Aspergillus fumigatus, UniProt Q873X9); enzyme activity, inhibitor, fluorometric; 10 min, pH 5.5, 37 °C, together with: 20 µM 4-MU-chitobiose).
For `C/C=C1/CN2CCc3c([nH]c4ccccc34)[C@@H]2C[C@@H]1/C(=C\OC)C(=O)OC`, the IC50 was 0.182 µM (5-hydroxytryptamine receptor 2B (HTR2B, Homo sapiens, UniProt P41595); inositol phosphate, antagonist).
The IC50 of `CCCCCCCCCC1N=C(N)N=C(N)N1c1ccccc1C` (racemic) is reported as 23 µM (Dihydrofolate reductase (folA, Staphylococcus aureus, UniProt P0A017); enzyme activity, inhibitor).
`CC[C@H](C)[C@H](NC(=O)[C@H](C)NC(=O)[C@H](Cc1ccc(O)cc1)NC(=O)[C@H](CCC(N)=O)NC(=O)[C@@H](NC(=O)[C@H](CC(C)C)NC(=O)[C@H](Cc1ccc(O)cc1)NC(=O)[C@@H]1CCCN1)[C@@H](C)O)C(=O)O` gave an IC50 of greater than 70 µM (H-2 class I histocompatibility antigen, K-D alpha chain, 29 (H2-K1, Mus musculus, UniProt P01902); binding, competitor, radioligand competition; purified MHC, mutant peptide, together with: radiolabeled standard peptide).
With `CC1OC(OC2CC3OC(C)(C)OCC34C3C(O)CC5(C)C(C6=CC(=O)OC6)CCC5(O)C3CCC4(O)C2)C(O)C(O)C1O` (stereo not drawn) the IC50 was 12.4 µM (porcine Na+/K+-ATPase; enzyme activity, colorimetric phosphate release).
With `CC(=O)NC1C(OC2OC(CC(O)C3OC(n4ccc(=O)[nH]c4=O)C(O)C3O)C(O)C(O)C2NC(=O)COCc2ccc(N3CCC(Oc4ccc(OC(F)(F)F)cc4)CC3)cc2)OC(CO)C(O)C1O` (stereo not drawn) the IC50 was 0.25 µM (Putative glycosyltransferase MJ1113 (Methanocaldococcus jannaschii, UniProt Q58513); enzyme activity, inhibitor; Methanococcus jannaschii enzyme).
`CC(C)[C@H](NC(=O)[C@H](C)NC(=O)[C@@H](N)Cc1ccccc1)C(=O)N1CCC[C@H]1C(=O)O` gave an IC50 of 427 µM (Dipeptidyl peptidase 4 (DPP4, Homo sapiens, UniProt P27487); enzyme activity, inhibitor, absorbance).
`CCn1nc(-c2ccccc2)nc2c(=O)n(C)c(=O)nc1-2` gave an IC50 of 11.3 µM (Trypanothione reductase (TPR, Trypanosoma brucei brucei, UniProt P39051); inhibitor, DTNB-coupled colourimetric; together with: substrate at Km).
`Cc1cccc2c1NC(=O)C2=Cc1ccc(-c2cccc(C(=O)N3CCCN(C)CC3)c2)o1` (mixture of isomers) has an IC50 of greater than 10 µM (Casein kinase II subunit alpha (CSNK2A1, Homo sapiens, UniProt P68400); enzyme activity, inhibitor).
The IC50 of `O=C(CCS)Nc1cccc(-c2nn[nH]n2)c1` is reported as 6.1 µM (blaNDM-1; enzyme activity, inhibitor, fluorescence; with preincubation).
`NC(=O)c1cccc(CCN(CC[C@H](N)C(=O)O)C[C@H]2O[C@@H](n3cnc4c(N)ncnc43)[C@H](O)[C@@H]2O)c1` gave an IC50 of 23 µM (Actin-histidine N-methyltransferase (SETD3, Homo sapiens, UniProt Q86TU7); enzyme activity, inhibitor, radiometric).
For `NC[C@@H]1O[C@H](O[C@H]2[C@@H](O)[C@H](O[C@@H]3[C@@H](O)[C@H](N)C[C@H](N)[C@H]3O[C@H]3O[C@H](CN)[C@@H](O)[C@H](O)[C@H]3N)O[C@@H]2Cn2cc(-c3ccc(-c4cn(C[C@H]5O[C@@H](O[C@@H]6[C@@H](O)[C@H](N)C[C@H](N)[C@H]6O[C@H]6O[C@H](CN)[C@@H](O)[C@H](O)[C@H]6N)[C@H](O)[C@@H]5O[C@H]5O[C@@H](CN)[C@@H](O)[C@H](O)[C@H]5N)nn4)cc3)nn2)[C@H](N)[C@@H](O)[C@@H]1O`, the IC50 was 0.056 ± 0.006 µM (HIV-1 TAR RNA; Tat peptide binding, FRET competition; pH 7.4, 25 °C).

Some of these lines once more:
For `O=C(COc1ccc2c(c1O)C(=O)c1ccccc1C2=O)c1ccccc1`, the IC50 was 60 ± 5 µM (Gag-Pol polyprotein, reverse transcriptase (gag-pol, Human immunodeficiency virus 1, UniProt P03366); RNA-dependent DNA polymerase activity; wild-type reverse transcriptase).
The IC50 of `COC(=O)C1CN1S(=O)(=O)c1ccc(C)cc1F` (stereo not drawn) is reported as greater than 200 µM (Protein disulfide-isomerase A3 (PDIA3, Homo sapiens, UniProt P30101); enzyme activity, inhibitor, absorbance; pH 7.6).
